Assay results pooled from the literature.
Parts stem from different laboratories: compare values within a part only. Positions count from the first letter of the parent shown.

Block 1 — target: CCND3, cyclin fold, Cln2 fusion (human); method: yeast growth competition, sequencing; sample: yeast; notes: weak parent motif; relative to: not given; reading: higher = stronger binding
Parent: SLBP docking peptide (human); ARYKRKLLINDFG
Change	normalised enrichment score
L7Q	0.13
A1Q	0.0368
K6Y	0.157
K4A	0.112
L7R	0.133
N10R	0.091
L8A	0.193
F12D	0.18
D11N	0.0613
K6H	-0.0449
L8P	0.154
D11P	0.212
L7E	0.0301
D11F	0.132
G13M	0.229
F12C	0.0821

Block 2 — method: Sort-seq; measured: YFP reporter; sample: E. coli; notes: PhoQ-PhoP variant library; together with: 10 µM Mg2+; relative to: high Mg2+ state; reading: higher = stronger signaling
Substance: PhoQ, residues 284 288 289 292 302 303 AGCYAI
target	fold induction
PhoP, residues 12 14 15 18 19 AYFRS (Escherichia coli, UniProt P23836)	7.79
PhoP, residues 12 14 15 18 19 SFCSL (Escherichia coli, UniProt P23836)	4.84
PhoP, residues 12 14 15 18 19 HHYTI (Escherichia coli, UniProt P23836)	0.708

Block 3 — method: universal PBM; molecule type: double-stranded DNA, one strand shown; sample: in vitro; concentration: 600 nM; reading: higher = stronger binding
Target: Sal-like protein 4, full length isoform A (SALL4, Homo sapiens, UniProt Q9UJQ4, residues 1-1053)
UniProt Q9UJQ4, sequence (whole entry, looked up): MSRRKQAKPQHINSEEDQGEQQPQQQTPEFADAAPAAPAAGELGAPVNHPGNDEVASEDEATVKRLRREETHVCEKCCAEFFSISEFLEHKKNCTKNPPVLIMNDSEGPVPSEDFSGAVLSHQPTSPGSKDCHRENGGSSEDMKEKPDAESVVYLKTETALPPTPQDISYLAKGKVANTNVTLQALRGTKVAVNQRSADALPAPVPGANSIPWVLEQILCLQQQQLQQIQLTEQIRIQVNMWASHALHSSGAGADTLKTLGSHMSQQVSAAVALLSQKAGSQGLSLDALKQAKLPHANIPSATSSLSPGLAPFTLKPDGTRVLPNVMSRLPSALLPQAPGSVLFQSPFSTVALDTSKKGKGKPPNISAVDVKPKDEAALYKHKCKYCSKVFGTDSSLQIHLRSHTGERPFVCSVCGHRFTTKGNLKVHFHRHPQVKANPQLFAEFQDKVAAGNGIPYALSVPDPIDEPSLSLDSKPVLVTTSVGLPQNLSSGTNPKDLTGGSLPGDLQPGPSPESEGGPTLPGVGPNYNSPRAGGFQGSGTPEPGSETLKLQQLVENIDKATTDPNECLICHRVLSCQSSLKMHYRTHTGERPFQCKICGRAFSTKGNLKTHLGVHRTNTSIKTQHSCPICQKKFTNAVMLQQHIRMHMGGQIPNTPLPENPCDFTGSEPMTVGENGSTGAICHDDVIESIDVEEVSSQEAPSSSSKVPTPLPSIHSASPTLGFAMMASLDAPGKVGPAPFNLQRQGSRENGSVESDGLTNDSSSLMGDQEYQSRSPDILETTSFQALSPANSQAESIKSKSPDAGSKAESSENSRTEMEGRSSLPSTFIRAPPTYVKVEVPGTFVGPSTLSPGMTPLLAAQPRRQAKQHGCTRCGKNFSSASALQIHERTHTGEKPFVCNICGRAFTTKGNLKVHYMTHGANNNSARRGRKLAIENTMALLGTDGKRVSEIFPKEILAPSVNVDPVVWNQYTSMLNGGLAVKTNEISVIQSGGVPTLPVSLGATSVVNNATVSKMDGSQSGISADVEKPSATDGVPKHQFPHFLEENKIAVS
Notes: 8-mer, flanks averaged, mean of replicates
Oligonucleotide	E-score
AAGTATGA	0.299
ATGCCTAG	0.0513
CGCCAACC	-0.234
TCTGGTCA	-0.13
AGCGAACT	-0.0185
ATTACGCG	0.0825
CCTCATAG	-0.0275
ATTGGAGA	0.2
CGAACCCG	-0.36
AGATAACC	0.0624
CCCCTCAA	-0.153
AAATAACA	0.348
ATCTCCGG	-0.0165
CCAAGCGG	-0.394
GACAAAAA	0.216
AACTCAGT	0.0187
TATTCGCA	0.27

Block 4 — method: protein-binding microarray; molecule type: double-stranded DNA, one strand shown; sample: in vitro; concentration: 2540 nM top; notes: 60-bp whole probe; together with: salmon DNA 0.4 mg/ml; relative to: random background probes; reading: higher = stronger binding; constant ends, left off below: GCCTAGCAC … GTCTTGATTCGCTTGACGCTGCTG
Target: Interferon regulatory factor 3, full length, phosphomimetic (IRF3, Homo sapiens, UniProt Q14653, residues 1-427, S386D/S396D/S398D/S402D/T404D/S405D)
Residues (chain): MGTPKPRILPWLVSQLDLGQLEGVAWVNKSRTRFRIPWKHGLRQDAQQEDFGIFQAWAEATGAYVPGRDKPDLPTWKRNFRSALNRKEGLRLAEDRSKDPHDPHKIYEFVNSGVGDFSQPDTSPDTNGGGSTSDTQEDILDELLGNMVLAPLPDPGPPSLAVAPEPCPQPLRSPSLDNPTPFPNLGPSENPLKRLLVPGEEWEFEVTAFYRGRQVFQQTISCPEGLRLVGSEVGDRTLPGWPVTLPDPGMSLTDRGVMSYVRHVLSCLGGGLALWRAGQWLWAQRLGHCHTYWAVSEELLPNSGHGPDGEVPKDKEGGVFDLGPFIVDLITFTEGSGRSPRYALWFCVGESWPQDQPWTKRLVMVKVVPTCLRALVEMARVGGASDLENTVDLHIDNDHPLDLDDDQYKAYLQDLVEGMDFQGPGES
Oligonucleotide	fitted relative affinity [z-score]
TTAGATTTGGGGTTTCGATTAGTGCTA	1.28
TTAGATATCGGGTTACGATTAGTGCTA	0.344
TCACCTCTAGGAATGTAACTGTGCTAG	0.216
TTAGATATGGGGTATCGATTAGTGCTA	-0.203
TCAATTTTCACGGTGGGACTGTGCTAG	0.138
AATTTTTTTTCTAACTAAAAGTGCTAG	1.4
CTCCCTTGAGGTTTTCTCTGGGTGCTA	-0.312
GACGGTTTCGGACTGGGGCCGTGCTAG	4.24
TCATGCTTCTGTATGGGACTGTGCTAG	-0.296
GAAGATTTCAATTAAAAAAAGTGCTAG	0.623
TCAGGTATCGACTATCGGTTAGTGCTA	0.663
TTAGATATCAGACTGCATTAGTGCTAG	0.117
GACGTTATCGACACTGGGGACGTGCTA	-0.0523
GACGATTTCGGGTCTCGAGACGTGCTA	2.69
TCATTTCTTTTATTAGTACTGTGCTAG	2.61
TCATAAATATCTTTGTTACTGTGCTAG	-0.0215
TTAGGTTTTGGTCTCGGTTAGTGCTAG	3.05

A few entries again (block 3):
Oligonucleotide	E-score
TCTGGTCA	-0.13
ATGCCTAG	0.0513
CGCCAACC	-0.234
